Published values gathered from unrelated publications.
Protocols differ between the studies behind these lines. Values joined by “and” are separate records of one study, mostly repeats; a detail may differ. Numbers after ± are the reported error.

N[C@@H](C(=O)O)[C@H](O)[C@@]1(C(=O)O)CC[C@H](C[C@H](NC(=O)c2cc(Cl)c(O)c(Cl)c2)C(=O)O)N1
Kb (rat cortex NMDA receptor; ion current, antagonist, two-electrode voltage clamp; Xenopus oocytes; pH 7.4, together with: NMDA + glycine 100 µM): 0.0116 µM

bombesin
phosphorylation level (Yes kinase, rat; Western blot, measured: Yes pY416; pancreatic acini; 1 nM, 1 min; reference: untreated control): 213 ± 17%

CN1CCN(CCCN2c3ccccc3Sc3ccc(C(F)(F)F)cc32)CC1
current inactivation (anoctamin-2 rat; Ca2+-activated Cl- current; HEK293 transfected; 20 µM, -70 mV, together with: free Ca2+ 7.5 µM): decreased

CC[C@H](C)[C@H](NC(=O)[C@@H]1CCCN1C(=O)[C@H](CC(=O)O)NC(=O)CNC(=O)[C@@H]1CCCN1C(=O)[C@H](CCC(=O)O)NC(=O)[C@H](C)NC(=O)[C@H](CCSC)NC(=O)[C@H](CC(C)C)NC(=O)[C@H](CO)NC(=O)[C@H](CCCCN)NC(=O)[C@H](CCCCN)NC(=O)[C@H](C)NC(=O)[C@@H](N)CCSC)C(=O)N1CCC[C@H]1C(=O)N[C@@H](CCCNC(=N)N)C(=O)N1CCC[C@H]1C(=O)N[C@@H](CCCNC(=N)N)C(=O)N[C@@H](CCCCN)C(=O)N[C@@H](CCCCN)C(=O)N[C@@H](CCCNC(=N)N)C(=O)N[C@@H](Cc1ccc(O)cc1)C(=O)N[C@@H](CCCNC(=N)N)C(=O)N1CCC[C@H]1C(=O)NCC(=O)N[C@H](C(=O)N[C@H](C(=O)N[C@@H](C)C(=O)N[C@@H](CC(C)C)C(=O)N[C@@H](CCCNC(=N)N)C(=O)N[C@@H](CCCCNC(=O)CCCC[C@@H]1SC[C@@H]2NC(=O)N[C@@H]21)C(=O)O)[C@@H](C)O)[C@@H](C)O
relative binding (Sim3-FLAG; biotinylated peptide pull-down; Schizosaccharomyces pombe, cell extract; concentration not given; reference: wild-type cell extract): 1

CCCOC(=O)c1cc(O)c(O)c(O)c1
maximal peptide depletion (lysine-containing peptide; mass spectrometry; 24 h, pH 10.2, room temperature): -59.2%

C=CC(C)(CO)c1cc(CC(=O)c2ccc(O)cc2O)c(O)cc1O (centres unmarked)
concentration doubling activity (quinone reductase; inducer; Hepa1c1c7): > 20 µM

O=c1c(O)c(-c2ccc(O)cc2O)oc2cc(O)cc(O)c12
IC50 (class IIa HDAC; enzyme activity; bovine heart lysate): 68 µM

ETGKLCS
NGS read count (human syntenin PDZ1-2 tandem; binding, proteomic peptide phage display; peptide; phage pools rounds 4 and 5; higher = stronger enrichment): 92

O=Cc1ccc(CO)[nH]1
concentration doubling activity (quinone reductase; inducer; Hepa-1c1c7; 48 h): > 100 µM

CC(C)C[C@H](NC(=O)[C@@H]1CCCN1C(=O)[C@H](CC(=O)O)NC(=O)[C@H](CO)NC(=O)[C@H](C)NC(=O)CC1c2ccccc2-c2ccccc21)C(=O)NCC(=O)N[C@H](C(=O)N[C@H](C(=O)N[C@@H](CCCNC(=N)N)C(=O)N1CCC[C@H]1C(=O)N[C@@H](CCCNC(=N)N)C(=O)N[C@@H](C)C(N)=O)C(C)C)C(C)C
recovery (Klotho (mouse); binding, size-exclusion affinity selection LC-MS/MS; 50 ng, together with: 50 µg Klotho): 0.5%

Nc1nc2c(ncn2[C@@H]2O[C@@H]3COP(=O)(O)O[C@H]3[C@H]2O)c(=O)[nH]1
EC50 (cone cyclic nucleotide-gated channel; ion current, agonist, inside-out patch clamp; pH 7.5, room temperature, after EDTA/EGTA, -40 mV, ph 7.5, together with: Ca2+ 20 µM, Mg2+ 100 µM): 61.4 µM and 78 µM

IRDFLRW
NGS read count (human syntenin PDZ1-2 tandem; binding, proteomic peptide phage display; peptide; phage pools rounds 4 and 5; higher = stronger enrichment): 252

O=C1c2c(O)cc(O)cc2O[C@H](c2cc(O)c(O)c(O)c2)[C@H]1O
IC50 (class IIb HDAC; enzyme activity; bovine heart lysate): 26 µM

LEQKAASCHNSYIVLAIENSFMTSFSK
binding (VEGFR-3-Fc, recombinant, mouse; pull-down, western blot; peptide; concentration not given, 2 h, pH 7.4, 4 °C): inhibited

COc1ccc(-c2cc(C(=O)Nc3cc(Cl)ccc3C)no2)cc1O
EC50 (mitochondrial permeability transition pore, mouse; mitochondrial swelling inhibition; isolated mouse liver mitochondria; together with: Ca2+): 7.56e-06 ± 1.22e-06 µM

O=C1c2c(O)cc(O)cc2O[C@H](c2cc(O)c(O)c(O)c2)[C@H]1O
EC50 (GABAA receptor, rat; mIPSC enhancement, positive allosteric modulator, whole-cell patch clamp; hippocampal neurons, cultured; DIV14, no ethanol): ~0.2 µM

C[N+](C)(C)CCCCC(NC(=O)OCC1c2ccccc2-c2ccccc21)C(=O)O (centres unmarked)
Ka (LytA C-terminal domain, Streptococcus pneumoniae; binding, ITC; pH 7.4, 16 °C): 18700 ± 2200 M⁻¹

LYAADKH
NGS read count (human syntenin PDZ1-2 tandem; binding, proteomic peptide phage display; peptide; phage pools rounds 4 and 5; higher = stronger enrichment): 213

CC(C)(O)c1cn(-c2ccc(-c3cc(F)c(CO)c(S(C)(=O)=O)c3)cc2F)c(C(C)(C)c2c(Cl)cccc2Cl)n1
EC50 (nuclear hormone receptors except PXR; agonist; cells): > 10 µM

Nc1nc2sc(CCc3ccc(C(=O)N[C@@H](CCC(=O)O)C(=O)O)cc3)cc2c(=O)[nH]1
relative binding affinity (human folate receptor beta; D4; concentration not given, together with: [3H]folic acid; reference: folic acid): < 0.01

RGAVVTGR-NH2 (C-amide)
amyloid formation (α-synuclein; inhibitor, ThT fluorescence; peptide; 2 molar equivalents, pH 6.6, 37 °C, together with: HFIP 2 vol-%; reference: uninhibited control): 91 ± 15%

EEEPMNL
NGS read count (human syntenin PDZ1-2 tandem; binding, proteomic peptide phage display; peptide; phage pools rounds 4 and 5; higher = stronger enrichment): 165

C=CC(C)(O)Cc1cc(CC(=O)c2ccc(O)cc2O)c(O)cc1O (centres unmarked)
concentration doubling activity (quinone reductase; inducer; Hepa1c1c7): > 20 µM

ASGDLCV
NGS read count (human syntenin PDZ1-2 tandem; binding, proteomic peptide phage display; peptide; phage pools rounds 4 and 5; higher = stronger enrichment): 114

CC(=O)OCCOC(C)=O
maximal peptide depletion (lysine-containing peptide; mass spectrometry; 24 h, pH 10.2, room temperature): -30.2%

COc1ccc(-c2cc(C(=O)Nc3cc(Cl)cnc3C)no2)cc1O
EC50 (mitochondrial permeability transition pore, mouse; mitochondrial swelling inhibition; isolated mouse liver mitochondria; together with: Ca2+): 0.0105 ± 0.0011 µM

CNC(=O)c1cc(Oc2ccc(NC(=O)Nc3cc(C(C)(C)C)nn3-c3ccc4ncccc4c3)c(F)c2)ccn1.Cc1ccc(S(=O)(=O)O)cc1
inhibition (human STAT5; measured: phospho-STAT5; human, peripheral blood leukaemia cells; 300 mg, day 1): ~65%

CC1(C)CC(=O)C2=C(C1)Oc1ncnc(Nc3ccc(F)cc3)c1C2c1ccccc1F (centres unmarked)
binding constant (calf thymus DNA; UV-visible absorption titration; 20 µM, about 2% DMSO): 450000 M⁻¹

LEQKAASAHNSYIVLAIENSFMTSFSK
binding (VEGFR-3-Fc, recombinant, mouse; pull-down, western blot; peptide; concentration not given, 2 h, pH 7.4, 4 °C): inhibited

GSGTDDE
NGS read count (human syntenin PDZ1-2 tandem; binding, proteomic peptide phage display; peptide; phage pools rounds 4 and 5; higher = stronger enrichment): 113

C/C=C(/C)C(=O)O[C@H]1C(C)=C2[C@H]([C@@H]1OC(=O)CCCCCCC)[C@@](C)(OC(C)=O)C[C@H](OC(=O)CCC)[C@@]1(O)[C@H]2OC(=O)[C@@]1(C)O
phosphorylation level (Yes kinase, rat; measured: Yes pY416; 1 µM, 5 min; reference: untreated control): 171 ± 14%

COC(=O)C(C)n1c(C=O)ccc1CO (centres unmarked)
concentration doubling activity (quinone reductase; inducer; Hepa-1c1c7; 48 h): 43.1 µM

CC12CCCn3ccc(c31)-c1ccccc1NC(=O)CC2 (centres unmarked)
EC50 (tubulin (bovine brain); tubulin spiral formation, centrifugation; 20 min, 30 °C, 4% DMSO, together with: GTP and glutamate): 27 ± 3 µM

SVGKDVF
NGS read count (human syntenin PDZ1-2 tandem; binding, proteomic peptide phage display; peptide; phage pools rounds 4 and 5; higher = stronger enrichment): 101

CC[N+](CC)(CC)CC
Ki (Na,K-ATPase (rat); Na,K pump current, inhibitor, whole-cell voltage clamp; rat ventricular myocytes; pH 7.4, 37 °C, 0 mV, Na+-free bath, together with: competitive with extracellular K+): 26600 ± 700 µM

RWFYFN / DRGSGK / WEKRWD (cyclic)
β-structure formation (α-synuclein; amyloid formation, inhibitor, circular dichroism; peptide; 2 molar equivalents, pH 6.6, 37 °C, together with: HFIP 2 vol-%; reference: uninhibited control): 80 ± 7%

CCOC(=O)N1c2ccc(C(F)(F)F)cc2[C@@H](N(Cc2cc(C(F)(F)F)cc(C(F)(F)F)c2)C(=O)OC)C[C@H]1CC
pre-beta-HDL formation decrease (CETP, human; human plasma; 0.1 to 10 µM, 21 h): > 46%

COc1cc(/C=C/C(=O)O)cc(OC)c1O
inhibition (BCRP (ABCG2), rat; protein expression, western blot; Wistar rats, liver; 40 mg/kg; reference: untreated rats): 81%

A few entries again:
LEQKAASAHNSYIVLAIENSFMTSFSK
binding (VEGFR-3-Fc, recombinant, mouse; pull-down, western blot; peptide; concentration not given, 2 h, pH 7.4, 4 °C): inhibited

GSGTDDE
NGS read count (human syntenin PDZ1-2 tandem; binding, proteomic peptide phage display; peptide; phage pools rounds 4 and 5; higher = stronger enrichment): 113
